Published values of several laboratories.
Every numbered part comes from another study and shows a few of its results, in no order. Positions count from the first letter of the parent shown.
Sequence of UniProt Q13882 (whole entry, looked up): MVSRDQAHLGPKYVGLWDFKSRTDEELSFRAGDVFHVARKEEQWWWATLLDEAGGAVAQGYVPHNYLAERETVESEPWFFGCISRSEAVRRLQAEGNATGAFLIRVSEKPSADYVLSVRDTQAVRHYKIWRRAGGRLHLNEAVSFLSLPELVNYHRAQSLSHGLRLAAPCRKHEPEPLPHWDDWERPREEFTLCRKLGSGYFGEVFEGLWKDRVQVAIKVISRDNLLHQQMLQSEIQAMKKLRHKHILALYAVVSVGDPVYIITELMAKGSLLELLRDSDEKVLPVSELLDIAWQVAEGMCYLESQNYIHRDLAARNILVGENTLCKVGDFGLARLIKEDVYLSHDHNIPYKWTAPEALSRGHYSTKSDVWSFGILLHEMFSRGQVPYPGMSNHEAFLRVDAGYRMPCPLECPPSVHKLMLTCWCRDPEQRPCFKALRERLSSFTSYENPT

Block 1
Target: Interferon regulatory factor 7, full length, phosphomimetic (IRF7, Homo sapiens, UniProt Q92985, residues 1-503, S101K/S471D/S472D/S475D/S476D/S477D/S483D/S484D/S487D)
Method: protein-binding microarray
Molecule type: double-stranded DNA, one strand shown
Matrix: in vitro
Tested at: 250 nM
Setting: 60-bp whole probe
Together with: salmon DNA 0.4 mg/ml
Baseline: random background probes
Direction: higher = stronger binding
Quantity: log fluorescence
Shared flanks, not repeated: GCCTAGCAC … GTCTTGATTCGCTTGACGCTGCTG
Target sequence (chain): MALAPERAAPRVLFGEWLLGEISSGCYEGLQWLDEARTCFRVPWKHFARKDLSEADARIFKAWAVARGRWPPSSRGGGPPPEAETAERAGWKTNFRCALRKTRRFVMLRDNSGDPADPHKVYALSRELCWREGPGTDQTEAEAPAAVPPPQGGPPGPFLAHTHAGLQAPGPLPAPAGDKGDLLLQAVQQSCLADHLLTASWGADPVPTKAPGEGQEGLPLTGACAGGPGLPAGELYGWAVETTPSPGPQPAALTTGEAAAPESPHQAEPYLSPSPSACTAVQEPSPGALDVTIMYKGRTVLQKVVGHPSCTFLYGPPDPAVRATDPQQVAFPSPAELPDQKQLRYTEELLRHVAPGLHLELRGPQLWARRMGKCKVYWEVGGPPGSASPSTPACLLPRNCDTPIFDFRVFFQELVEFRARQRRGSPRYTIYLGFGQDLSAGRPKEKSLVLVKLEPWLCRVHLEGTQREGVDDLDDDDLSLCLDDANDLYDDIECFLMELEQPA
GACGGACTGCTTATCCTGTCGTGCTAG: -0.114 z-score
CTCCCTTGAGGTTTTCTCTGGGTGCTA: -0.698 z-score
TCATGACTCTGCCTCTAACTGTGCTAG: -0.182 z-score
GACGGTATCGGGACTCGGGACGTGCTA: 0.0912 z-score
CCCTCCCTAATTCTGATTGGGTGCTAG: 0.263 z-score
TCATCAATCATTTTCGTACTGTGCTAG: 0.925 z-score
TTTTCTCTTATTCTAACAGCGTGCTAG: 2.66 z-score
TCATCTCTCCATGTGTTACTGTGCTAG: 0.97 z-score

Block 2
Change: L20N
Target: ABI1, truncated, D143A, DHFR fusion (Arabidopsis thaliana)
Method: DHFR PCA, deep sequencing
Matrix: yeast
Setting: methotrexate growth selection, single substitutions
Baseline: wild-type fitted maximum
Direction: higher = stronger binding
Quantity: relative binding score
Starting sequence: PYL1, truncated, DHFR fusion (Arabidopsis thaliana); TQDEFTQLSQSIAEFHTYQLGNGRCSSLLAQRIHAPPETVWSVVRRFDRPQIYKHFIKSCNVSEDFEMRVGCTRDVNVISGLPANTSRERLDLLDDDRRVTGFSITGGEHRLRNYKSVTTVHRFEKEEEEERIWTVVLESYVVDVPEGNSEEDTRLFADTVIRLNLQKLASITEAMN; partner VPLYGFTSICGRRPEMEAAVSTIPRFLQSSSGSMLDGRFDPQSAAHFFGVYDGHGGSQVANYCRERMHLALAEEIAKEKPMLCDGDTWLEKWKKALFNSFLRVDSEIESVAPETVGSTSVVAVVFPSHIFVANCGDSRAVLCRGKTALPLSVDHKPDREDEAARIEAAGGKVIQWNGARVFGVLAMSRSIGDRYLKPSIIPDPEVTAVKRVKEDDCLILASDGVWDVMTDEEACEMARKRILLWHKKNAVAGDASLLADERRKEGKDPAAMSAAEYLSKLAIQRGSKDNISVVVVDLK
together with: (+)-ABA 200 µM: 97.7%
together with: (+)-ABA 58 µM: 87.9%
together with: (+)-ABA 0.0091 µM: 28.7%
together with: (+)-ABA 1.4 µM: 39.1%
together with: (+)-ABA 0.11 µM: 30.4%
together with: (+)-ABA 0 µM: 24.8%

Block 3
Target: Hepatocyte nuclear factor 3-alpha (Foxa1, Mus musculus, UniProt P35582, residues 1-468, full length assumed)
Method: EMSA with sequencing
Molecule type: double-stranded DNA, one strand shown
Matrix: in vitro
Tested at: 10 and 20 nM
Setting: whole designed probe, mean of two concentrations, ends assumed
Baseline: negative control set to 0
Direction: higher = stronger binding
Quantity: normalised bound fraction
Shared flanks, not repeated: GTGAGCGGTGCCCATTGATGGGGAAC … TTTCACTGGGATCGTGGGGAC
Construct (chain): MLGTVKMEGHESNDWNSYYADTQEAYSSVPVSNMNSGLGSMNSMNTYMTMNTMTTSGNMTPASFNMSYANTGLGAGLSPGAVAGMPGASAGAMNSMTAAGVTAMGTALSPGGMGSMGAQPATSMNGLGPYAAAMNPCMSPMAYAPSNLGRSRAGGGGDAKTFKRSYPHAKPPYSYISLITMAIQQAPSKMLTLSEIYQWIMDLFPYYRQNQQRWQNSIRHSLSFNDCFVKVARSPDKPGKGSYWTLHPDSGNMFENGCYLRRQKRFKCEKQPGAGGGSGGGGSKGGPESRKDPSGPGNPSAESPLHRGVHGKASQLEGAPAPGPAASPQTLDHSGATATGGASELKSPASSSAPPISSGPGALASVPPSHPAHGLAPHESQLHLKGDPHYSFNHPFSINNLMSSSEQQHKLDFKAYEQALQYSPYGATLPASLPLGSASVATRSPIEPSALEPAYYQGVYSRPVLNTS
CCTGCACTCCTGCCGGTGGCCTGACCCCTTCTGCCCTGTGCCAATTGTCTGCACCCTCCATCCGGGGTTTGCCAGTCAGCCGGCCCAGAGCTATGTAAACAACAAGTCTAGATGTGTCCCTATTTGGGCAACTCTGCAAGGGAAAAATAAGAAGTTGTTAGAATGCTAAGAATGCAGAGCATCCGGAGATTCC: 0.458 ratio
ATCCACGAACCTGGCCCTGTCTGGTAACCACAGTGAACCATCGCAAGATACAGCACTATGTGCCCATAATGACTCACGTTGGGCTGGAAATGTGTCAACACTGGCACATCCTCAGGGACACGGAAGTGTACTTGTTTTTGGAGAGGGACTAGACCTTCATCCTTGAGGTGAAGAAGATTTTCTCTCCAGGGTG: 0.0339 ratio
ACTATTTTATTCAGGTTGATTTGTTTAATATTTGCTAAAGGCCAGTTCTTTAAGCTATGACACATAATAAATCCCAAATGGCAGTACCTCATTGTTTACTTAGCTTTTGTACTTATATTTCTCAGAGGAAGAACCACTACTGTAAATTGTAAATAGCCAATACATAATTGTATTGTATGCAAATCTGTGACTG: 0.546 ratio
AATGTGTGTACTTACTAGACTACAGTATAGTGTAAATATAACTTAAGTATGTACTGGAAAACCAAAACATTCATGCGACTTGTTTTATTGCAGTATTTACTTTATTAGGTGATCTGGAACAGAACCCACAGTATCTTCAAGGTATGTGTATACTTCTCTAAATCAAATTTAATCTGATCCAAGCCTTCATCTC: 0.452 ratio
AGCAGAACTAATTTATCAATTCCTTAAATACATATTAATGCATACCAAGGGCAGACACTCTGACTTAATAGGAGGATATTGAGAATAAATATAAGTAATCTAGAAATTTTATAATATGTTAGAAGATAGTAAATGCTGTAAAAAATATTTAGAGTGAGGAAAAGGAGTTCAAGACAGCAGAAAAAAAAGTGAA: 0.145 ratio
TGGTTTTAAAGACTAACAGGATAATGGCGTTTCTTGTTTAGCGGCATAAATTGTGAATGTGTTCCATTAAATTTCCATATGGCATCATGACAATGTAAACACAGACCATCAAGAAGGTCCATAGACTGGCCACTGAGAGAACTCTGGGGGCCCATTGTGATGCTCTCTGGCTAGTCCATCGGGGTCTACATGA: 0.4 ratio
GTGTGTGCGCGCGCGTGTGTGTGTGTTTTCTTAAGCCGGGCTATTCAAACCCTGCTGCAATTCTCCCAATGATTCATGGTAAAGGGGCACGTTTATTTGCATTAGATTGCAAACGGCGCGGTTCGCGCACTTTGCAGCCGGCCCGGTGGAGCAGCCAGTGCCGGATTTCTCCCTTTTTTTGCAGATCTGCAGA: 0.446 ratio
TTTTGTCCAATTTATTAACTCCTGGAAAACGGCACTCAGTCTATTGCAAGAAAAGCCTTTGCTGATGAGCATGACCAGAATTTGCATACTTTCTTGTTTACATAACACTTATTCTTTACTAGTGGGCATATTTGCTTATAAGCTGTTAAGCAGGGTATTGGAAGGCCTCTATGGAACTTCACTTATCAGTGAT: 0.537 ratio

Mixed results
O=S(=O)(NC1CCC(c2cc(F)ccc2F)(S(=O)(=O)c2ccc(Cl)cc2)CC1)C(F)(F)F (centres unmarked) — remaining binding (Protein-tyrosine kinase 6 (PTK6, Homo sapiens, UniProt Q13882); cell-free assay, competition with immobilised ligand; 1 µM): 95%

Some of these lines once more (block 2):
together with: (+)-ABA 200 µM: 97.7%
together with: (+)-ABA 58 µM: 87.9%
